{"data": "Experimental data collected from several papers", "note": "A part holds a random share of what one study measured."}
{"data": "Study 1", "target": "Hepatocyte nuclear factor 3-alpha (Foxa1, Mus musculus, UniProt P35582, residues 1-468, full length assumed)", "method": "EMSA with sequencing", "form": "double-stranded DNA, one strand shown", "matrix": "in vitro", "tested at": "10 and 20 nM", "notes": "whole designed probe, mean of two concentrations, ends assumed", "reference": "negative control set to 0", "direction": "higher = stronger binding", "all sequences stand within": "GTGAGCGGTGCCCATTGATGGGGAAC … TTTCACTGGGATCGTGGGGAC", "UniProt P35582, sequence (whole entry, looked up)": "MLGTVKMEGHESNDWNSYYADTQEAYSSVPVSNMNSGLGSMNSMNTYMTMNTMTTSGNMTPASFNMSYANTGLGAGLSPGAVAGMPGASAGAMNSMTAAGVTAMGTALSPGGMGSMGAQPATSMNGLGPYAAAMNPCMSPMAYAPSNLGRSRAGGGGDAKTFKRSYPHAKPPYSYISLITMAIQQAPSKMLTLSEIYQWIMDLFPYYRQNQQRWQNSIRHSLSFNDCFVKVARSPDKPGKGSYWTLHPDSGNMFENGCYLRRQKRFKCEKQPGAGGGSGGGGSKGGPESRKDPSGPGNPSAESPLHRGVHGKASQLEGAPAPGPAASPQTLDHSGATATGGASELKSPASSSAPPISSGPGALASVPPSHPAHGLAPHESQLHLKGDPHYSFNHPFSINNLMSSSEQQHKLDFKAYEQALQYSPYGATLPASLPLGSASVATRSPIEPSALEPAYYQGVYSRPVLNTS"}
{"Sequence": "ACAAAAATACTTCAGTAGAGTGTAAAAAAAAATGCACTTGTGGTTCAACTTTTAACAAAAGGCATTCATGCCAGGTATTTCTTACCACCTTGCATGTTTACTTTGTGGTTGTTATCACTGAAACCTCAGAACATTAGTTGTTTCTTAAACAATGTACTGTCTTATTTATTTAAGCTGTTGCCATGTTACTGTT", "normalised bound fraction [ratio]": 0.481}
{"Sequence": "ATGTGCTAAAAATACAAGACTTGCTTACGCAGAGAGCCGGGAGCTATGTTCCAGTGAGGGTGGAAACAAAAGCCTCAGTATAAGACTGTCAGGTGTTTACACTTGCTCATGTGGCAACACGAGGAAGGGTGTGGTTTGCTGGACTCCACATGCTGAGGCTCAAAGTAGAAATCACTGATCTTATGTCACATAT", "normalised bound fraction [ratio]": 0.383}
{"Sequence": "TGAGGACTGGAACATTATAGTTTTATATCTCACACTAACAGAAAACTCTTTGATATATTGCAATTATTCAATGCATGTTTAATAAATAATAAGTAATCTTGGCATAAAAATAATTTTAATTGTGGACTTTTATTATTAAAACACTTTTAATTATTATTTAATTAACAATTTTAATTATGAAATCTGCATTCAA", "normalised bound fraction [ratio]": 0.128}
{"Sequence": "AACAACCAGGAGGAAACAGGGTGATTATTGATTCAAGAGAAAACAGAATATTTGTGGATTTAGGGTCAATAAAACAACCTCCACAAATGTTAAAGTAATCTAGGAAAAATATAGCTTTAAAAAATGGACAACTAGGAGAATTTCTTTTCACATAGCAATGCAATTTTCTCCTCACAGTGATAGTCATAATTTC", "normalised bound fraction [ratio]": 0.173}
{"Sequence": "GATTTTTCTAGGAAATTACAGGTTTTTTTTTAAATCAAGACCATTGGTATATAGCTGTGCAGTATTTTCTGTATTAATTAAAAATTTCCCTCATATTTACTTTCATATCCCTTTATCCATTTTTAAATTTATGTAACCCAAATGTTACAGTCTCATGAGGTCAGAGTCTCATTAAGAAAAAATCCTGCATTTT", "normalised bound fraction [ratio]": 0.12}
{"data": "Study 2", "target": "Sal-like protein 4, full length isoform A (SALL4, Homo sapiens, UniProt Q9UJQ4, residues 1-1053)", "method": "universal PBM", "form": "double-stranded DNA, one strand shown", "matrix": "in vitro", "tested at": "600 nM", "notes": "8-mer, flanks averaged, mean of replicates", "direction": "higher = stronger binding", "UniProt Q9UJQ4, sequence (whole entry, looked up)": "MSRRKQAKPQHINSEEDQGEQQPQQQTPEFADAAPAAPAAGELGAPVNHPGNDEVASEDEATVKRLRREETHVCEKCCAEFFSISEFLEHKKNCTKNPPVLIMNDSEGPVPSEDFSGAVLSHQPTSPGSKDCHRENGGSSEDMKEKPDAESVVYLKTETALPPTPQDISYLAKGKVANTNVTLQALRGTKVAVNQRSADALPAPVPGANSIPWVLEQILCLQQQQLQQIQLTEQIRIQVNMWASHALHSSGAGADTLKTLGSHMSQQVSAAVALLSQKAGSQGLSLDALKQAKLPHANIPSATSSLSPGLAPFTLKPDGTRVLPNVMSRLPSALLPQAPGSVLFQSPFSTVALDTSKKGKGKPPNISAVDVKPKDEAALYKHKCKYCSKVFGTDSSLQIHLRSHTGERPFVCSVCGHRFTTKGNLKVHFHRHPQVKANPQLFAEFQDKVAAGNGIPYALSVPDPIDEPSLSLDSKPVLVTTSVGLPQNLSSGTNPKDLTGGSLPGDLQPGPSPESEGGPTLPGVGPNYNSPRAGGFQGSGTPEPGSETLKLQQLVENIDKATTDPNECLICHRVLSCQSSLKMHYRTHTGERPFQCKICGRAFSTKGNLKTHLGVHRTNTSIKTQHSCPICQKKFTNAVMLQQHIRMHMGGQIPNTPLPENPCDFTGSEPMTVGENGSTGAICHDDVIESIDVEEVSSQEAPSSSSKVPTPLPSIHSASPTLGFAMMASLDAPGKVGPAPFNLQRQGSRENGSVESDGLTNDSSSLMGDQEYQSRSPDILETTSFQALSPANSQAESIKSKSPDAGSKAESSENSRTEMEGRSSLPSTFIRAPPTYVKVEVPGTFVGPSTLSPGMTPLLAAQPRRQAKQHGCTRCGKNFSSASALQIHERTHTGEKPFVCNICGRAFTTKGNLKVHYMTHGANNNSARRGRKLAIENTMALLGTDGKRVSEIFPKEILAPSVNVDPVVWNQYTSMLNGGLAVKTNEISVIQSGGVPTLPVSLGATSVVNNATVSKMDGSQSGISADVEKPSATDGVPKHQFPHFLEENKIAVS"}
{"Sequence": "TACTATAA", "E-score": 0.36}
{"Sequence": "ACGGTGCG", "E-score": -0.281}
{"Sequence": "CAACCGGC", "E-score": -0.202}
{"Sequence": "ATTCTTAA", "E-score": 0.193}
{"Sequence": "AGGTTGAA", "E-score": 0.113}
{"Sequence": "AAGCATCT", "E-score": 0.104}
{"Sequence": "GTTGTGTA", "E-score": 0.157}
{"Sequence": "CTTACCAA", "E-score": 0.165}
{"Sequence": "CGGGTTGA", "E-score": -0.299}
{"Sequence": "GCACACAA", "E-score": -0.0432}
{"Sequence": "CACCGGGC", "E-score": -0.354}
{"Sequence": "ACGTGTAG", "E-score": -0.087}
{"Sequence": "AGTAAGGA", "E-score": 0.000875}
{"Sequence": "CCCTGGAC", "E-score": -0.365}
{"Sequence": "CCAATAAC", "E-score": 0.267}
{"Sequence": "GCTTCTTA", "E-score": 0.0255}
{"data": "Study 3", "target": "Prothrombin, mature alpha-thrombin (F2, Homo sapiens, UniProt P00734)", "method": "aptamer microarray, sandwich", "form": "DNA with 2'F-ANA", "matrix": "in vitro", "tested at": "200 nM", "notes": "whole 15-mer aptamer, many near background", "together with": "Cy3 exosite-II aptamer, 400 nM", "direction": "higher = stronger binding", "sequence": "GGTTGGTGTGGTTGG"}
{"Modification": "2'F-ANA at 2 4 7 8 10 11 12 13 14 15", "mean fluorescence intensity [a.u.]": 63.9}
{"Modification": "2'F-ANA at 1 3 4 6 7 8 10 11", "mean fluorescence intensity [a.u.]": 66}
{"Modification": "2'F-ANA at 5 13 14", "mean fluorescence intensity [a.u.]": 45.2}
{"Modification": "2'F-ANA at 3 4 5 6 7 9 12 13 15", "mean fluorescence intensity [a.u.]": 123}
{"Modification": "2'F-ANA at 3 4 7 8 9 10 12 14", "mean fluorescence intensity [a.u.]": 196}
{"Modification": "2'F-ANA at 2 5 6 13 15", "mean fluorescence intensity [a.u.]": 58.9}
{"Modification": "2'F-ANA at 1 4 5 7 8 9 10 13 14", "mean fluorescence intensity [a.u.]": 49.3}
{"Modification": "2'F-ANA at 7 9 11 12 13 14 15", "mean fluorescence intensity [a.u.]": 229}
{"Modification": "2'F-ANA at 1 4 8 9 11 12 13", "mean fluorescence intensity [a.u.]": 188}
{"Modification": "2'F-ANA at 2 5 6 7 10 11 12 14 15", "mean fluorescence intensity [a.u.]": 47.5}
{"Modification": "2'F-ANA at 1 3 4 9 10 13", "mean fluorescence intensity [a.u.]": 59}
{"Modification": "2'F-ANA at 4 6 9 15", "mean fluorescence intensity [a.u.]": 250}
{"Modification": "2'F-ANA at 1 2 5 6 8 12 13 14 15", "mean fluorescence intensity [a.u.]": 47.8}
{"Modification": "2'F-ANA at 4 7 8 10 12 14 15", "mean fluorescence intensity [a.u.]": 75.4}
{"Modification": "2'F-ANA at 3 6 7 8 9 12 14", "mean fluorescence intensity [a.u.]": 640}
{"Modification": "2'F-ANA at 1 2 4 6 8 11 13", "mean fluorescence intensity [a.u.]": 85.6}
{"Modification": "2'F-ANA at 1 2 3 12 15", "mean fluorescence intensity [a.u.]": 476}
{"data": "Study 4", "target": "RNA binding protein fox-1 homolog 2, RRM domain, GST-SBP tag (RBFOX2, Homo sapiens, UniProt O43251-10, residues 100-194)", "method": "RNA Bind-n-Seq", "form": "RNA", "matrix": "in vitro", "tested at": "365 nM", "notes": "natural RNA segment, single round, ends assumed", "reference": "no-protein control", "direction": "higher = stronger binding", "all sequences stand within": "GGGAGUUCUACAGUCCGACGAUC … UGGAAUUCUCGGGUGCCAA", "Target sequence (chain)": "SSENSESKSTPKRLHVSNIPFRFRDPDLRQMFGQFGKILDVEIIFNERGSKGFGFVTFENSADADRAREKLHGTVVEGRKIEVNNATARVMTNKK"}
{"Sequence": "AAGAGUUUUCCAGCCCAAGGCAAAAUGGAAGAUUGCUGACCCAACCACAAACCCAUCCCUGCGGAGUCUCUCUCUCUCUCUCUCUCUCUCUCUCUCUCUCUCUCUCUCUC", "RBNS enrichment (R)": 0.77}
{"Sequence": "UUUUUAAUGCUGUUCCUCAUGUACAUGACUUAAAAAUGUCACCAAGGCAUCAAAAUGAGUUGACAGCCAGGCCUGGUGGUACAGGCCAGUAAAGCCAGCUGCUCUGGAGG", "RBNS enrichment (R)": 0.314}
{"Sequence": "CCACCCUCAUUACAUCAUCAGGACUUGAAGCCAAGGGUUAACCCAGCAAGCUACAAAGAGGGUGUGUCACACUGAAACUCAAUAGUUGAGUUUGGCUGUUGUUGCAGGAA", "RBNS enrichment (R)": 0.377}
{"Sequence": "UCUAAAACUCUGUGCAGAAUCUUGUGUUGGGAUUGUAUCUUGACAUUCCUGUUGUGUUAUUUUUCUUAACUGGAGUGUGUGCUGCCUUUCAGGUACAAUUUUUGUGUAAU", "RBNS enrichment (R)": 0.47}
{"Sequence": "GCCUGGGGUCCCUCUGAAGAGACCUUGGCUGCUCACUGUCCACAUGUGAACUUUUUCUAGGUGGCAGGACAAAUUGCGCCCAUUUAGAGGAUGUGGCUGUAACCUGCUGG", "RBNS enrichment (R)": 0.39}
{"Sequence": "AGGCUAUAACUUUGGAGUGAUAAGUCCUAUGGCUUUCUACAGUAGAGAACCACCCAAGGGUGUCGAUUAUAACAGAAUGUGGAGAGUGGGUGGCCGUCAUUGGGAAAGCA", "RBNS enrichment (R)": 4.97}
{"Sequence": "UGUAUAUAAACUCCAAAGAGAAACACCCCAAUAGCCUAAGCAAUAAUGCAAAGAUCUUGCCCCUGCCAGUGGCAAGUGCCGACAAACCAAGUGCCUGUAGGCUCCUGGGA", "RBNS enrichment (R)": 0.597}
{"Sequence": "GUCCAUUCAGCCAGGAACACACUCUAGCCUUCCUGACUCUCUUAAACUGUGGACGUCAGGAGGCCGAAUGCAGAAAAGUAUAUCUGGGAUGGAUGGCAGGGAAUAGAAGC", "RBNS enrichment (R)": 8.1}
{"note": "For quick reference, copied from above (study 3):"}
{"Modification": "2'F-ANA at 2 5 6 7 10 11 12 14 15", "mean fluorescence intensity [a.u.]": 47.5}
{"Modification": "2'F-ANA at 1 3 4 9 10 13", "mean fluorescence intensity [a.u.]": 59}
